Measurements pooled from the literature.
Protocols differ between the studies behind these lines. “And” joins repeats or separate records; there may be more than shown. Numbers after ± are the reported error.

Cc1cc2ccccc2n1CCNC(=O)c1ccc(N2CCOCC2)cc1  remaining compound (mouse liver microsomes; 60 min): < 1%
CCOC(=O)[C@H](CCc1ccccc1)N[C@@H](C)C(=O)N1CCC[C@H]1C(=O)O  remaining compound (mouse plasma; 10 µM, 30 min): 59%
NC(=O)c1ccccc1NC(=O)c1ccc(-c2ccccc2)cc1  remaining compound (human plasma; 2 µM, 60 min, 37 °C): 105%
N#C[C@@]12C[C@@H]1[C@@H](n1cnc3c(N[C@@H](C4CCC4)C4CC4)nc(I)nc31)[C@H](O)[C@@H]2O  remaining compound (plasma stability; human plasma; 120 min): 93.3%
N[C@H]1CC[C@H](N[C@@H]2C[C@H]2c2ccccc2)CC1  remaining compound (aqueous buffer; 4 days, 37 °C): 94%
CC[C@H](C)C(=O)O[C@H]1C[C@@H](C)C=C2C=C[C@H](C)[C@H](CC[C@@H]3C[C@@H](O)CC(=O)O3)[C@H]21  remaining compound (mouse liver microsomes; 15 min): not detected
NCc1cc2c(cc1F)C(=O)N(C1CCC(=O)NC1=O)C2 (stereo not shown)  remaining compound (male Göttingen minipig, whole blood; 3 h): < 1%
CCOC(=O)C1=C(CN2CCOCC2)NC(c2nccs2)=NC1c1ccc(F)cc1Br (stereo not shown)  remaining compound (human liver microsomes; 1 µM, 60 min, pH 7.4): 10.2%
COc1ccc2cc3[n+](cc2c1OC)CCc1cc2c(cc1-3)OCO2  remaining compound (rat liver microsomes; 10 µM, 30 min, pH 7.4, together with: microsomes 0.5 mg/mL): 11.9 ± 0.1%
CC(C)=CC(=O)CCC(=O)N1CCN(Cc2cc3nc(-c4cccc5[nH]ncc45)nc(N4CCOCC4)c3s2)CC1  remaining compound (microsomes, rat liver, male, Sprague-Dawley; 1 µM, 60 min, without NADPH, 0.5 mg/mL microsomal protein): 45.3% and 45%
CCOC(=O)[C@H](CCc1ccccc1)N[C@@H](C)C(=O)N1CCC[C@H]1C(=O)O  remaining compound (rat plasma; 1 µM, 2 h): 0%
C=CC(=O)N1CCC(C(=O)N(C)CC(=O)N2CCN(c3nc(-c4cnc(N)nc4C(F)F)nc(N4CCOCC4)n3)CC2)CC1  remaining compound (microsomes, rat liver, male, Sprague-Dawley; 1 µM, 60 min, without NADPH, 0.5 mg/mL microsomal protein): 92.7%
N.O=C(Nc1nc2ccccc2s1)NS(=O)(=O)O  remaining compound (mouse liver microsomes; 4 µM, 30 min): 0%
N#Cc1ccccc1-c1cc(NCCCN2CCCCC2)c2ccccc2n1  remaining compound (human liver microsomes; 1 h): 15.4%
COc1ccc2[nH]c([S+]([O-])Cc3ncc(C)c(OC)c3C)nc2c1 (stereo not shown)  remaining compound (simulated gastric fluid with pepsin; 1 µM, 0 min, pH 1.2): 100%
C=CC(=O)N1CCC(C(=O)NCC(=O)N2CCN(c3nc(-c4cnc(N)nc4C(F)F)nc(N4CCOCC4)n3)CC2)CC1  remaining compound (microsomes, rat liver, male, Sprague-Dawley; 1 µM, 10 min, 0.5 mg/mL microsomal protein, together with: NADPH): 94%
C#Cc1ccc(C(F)(F)F)cc1C=O  remaining compound (HPLC-MS; HEPES buffer with 10% acetonitrile; 1 mM, 1 h, pH 7.4): 98%
CCOc1ccc2ccc(=O)oc2c1  remaining compound (human liver microsomes; 1 µM, 60 min, pH 7.4, together with: without cofactors): 106%
CC[C@H](C)[C@@H]([C@@H](CC(=O)N1CCC[C@H]1[C@H](OC)[C@@H](C)C(=O)N[C@@H](Cc1ccccc1)C(=O)NCCCO)OC)N(C)C(=O)[C@@H](NC(=O)[C@H](C(C)C)N(C)C)C(C)C  remaining compound (human whole blood; 1 µM, 60 min): 80.5%
C#CCN(C)Cc1ccccc1  remaining compound (LC-MS; PBS with 25% DMSO; 5 mM, 144 h, 37 °C): 95%
CC(C)=CCC[C@](C)(O[C@@H]1O[C@H](CO)[C@@H](O)[C@H](O)[C@H]1O)[C@H]1CC[C@]2(C)[C@@H]1[C@H](O)C[C@@H]1[C@@]3(C)CC[C@H](O[C@@H]4O[C@H](CO)[C@@H](O)[C@H](O)[C@H]4O[C@@H]4O[C@H](CO)[C@@H](O)[C@H](O)[C@H]4O)C(C)(C)[C@@H]3CC[C@]12C  remaining compound (rat plasma; 1 ng/mL, 24 h, room temperature): 86.1 ± 3.6%
CSc1nccc(C(=O)N[C@@H](CCC(=O)O)C(=O)N[C@@H](Cc2ccc3ccccc3c2)C(=O)N[C@@H](CC(C)C)C(=O)NC2CC2c2ccccc2)n1 (stereo partly shown)  remaining compound (pooled human plasma; 15 min, 37 °C): 104%
N=C(N)Nc1cccc(C(=O)NCC(=O)NC[C@H](NC(=O)c2c(Cl)cc(-c3ccc4cn[nH]c4c3)cc2Cl)C(=O)O)c1  remaining compound (mouse liver microsomes; 45 min): 112%
CC(C)=CCC[C@](C)(O[C@@H]1O[C@H](CO[C@@H]2O[C@H](CO)[C@@H](O)[C@H](O)[C@H]2O)[C@@H](O)[C@H](O)[C@H]1O)[C@H]1CC[C@]2(C)[C@@H]1[C@H](O)C[C@@H]1[C@@]3(C)CC[C@H](O[C@@H]4O[C@H](CO)[C@@H](O)[C@H](O)[C@H]4O[C@@H]4O[C@H](CO)[C@@H](O)[C@H](O)[C@H]4O)C(C)(C)[C@@H]3CC[C@]12C  remaining compound (rat plasma; 5 ng/mL, 24 h, room temperature): 87.5 ± 6.2%
Cc1[nH]c2ccccc2c1CCNC(=O)c1ccc(N2CCOCC2)cc1  remaining compound (mouse liver microsomes; 60 min): < 1%
CC(C)(C)OC(=O)NC(c1cccc(F)c1)C(F)(F)C(=O)c1ccc(Cl)cc1 (stereo not shown)  remaining compound (rat serum; 30 min; baseline: time zero): 75.5%
OCc1nc2ccc(NCc3ccc(SC(F)(F)F)cc3)cc2[nH]1  remaining compound (human liver S9; 1 µM, 90 min, pH 7.4): > 80%
N#Cc1ccc(-c2cc(NCCCN3CCCCC3)c3ccccc3n2)cc1  remaining compound (human plasma; 1 h): 94.7%
CO[C@@H](C[C@H]1C(C)=CC[C@@H]2[C@]3(C)C[C@H](O[C@@H]4O[C@@H](C)[C@H](OC(=O)c5cccc(O)c5)[C@@H](O[C@@H]5O[C@H](CO)[C@@H](O)[C@H](O)[C@H]5NC(C)=O)[C@H]4O)[C@@H](O)C(C)(C)[C@H]3CC[C@]21C)[C@H](N)C(=O)O.O=C(O)C(F)(F)F  remaining compound (simulated gastric fluid with pepsin; 1 µM, 240 min, pH 1.2): 103%
O=C(N/N=C/c1ccccc1O)c1ccncc1  remaining compound (LC-MS; rat plasma; 100 µM, 10 h, 37 °C): < 2.5%
CNc1cc[n+](CCNC(=O)c2ccn3c(-c4c(C)noc4C)cnc3c2)cc1.[Cl-]  remaining compound (0.1 M HCl; 1 weeks, pH 1, room temperature): 100 % peak area
c1ccc(-c2cc(NCCCN3CCCCC3)c3ccccc3n2)cc1  remaining compound (human liver microsomes; 1 h): 36.6%
O=C(Nc1ccc(F)cc1)N1CCNCC1COc1ccc2c(c1)OCO2 (stereo not shown)  remaining compound (mouse liver microsomes; 90 min): 57 ± 1%
CN1CCN(C(=O)[C@H](CCCN[C@@H]2C[C@H]2c2ccc(F)cc2)NC(=O)c2ccc(-n3ccnn3)cc2)CC1  remaining compound (aqueous buffer; 0 days, 37 °C): 100%
Cn1cncc1-c1c(F)cncc1NC(=O)c1c(N)nn2cc(F)cnc12  remaining compound (human EDTA plasma; 4000 ng/mL, 6 h, room temperature, high QC): 100%
O=C(Oc1coc(CSc2ncccn2)cc1=O)c1ccc([N+](=O)[O-])cc1  remaining compound (RPMI with 10% FBS; 100 µM, 1 day): 60%
O=Cc1c(O)cc(C(F)(F)F)cc1C(F)(F)F  remaining compound (HPLC-MS; HEPES buffer with 10% acetonitrile; 1 mM, 1 h, pH 7.4): 96%
CC[N+]1(C)CCN(c2ccc(NC(=O)c3cccc(C)n3)cc2)CC1  remaining compound (pooled BALB/c mouse plasma; 1 µM, 1.5 h): 102%
CSc1ncc(Br)c(C(=O)N[C@@H](CCC(=O)O)C(=O)N[C@@H](Cc2ccc3ccccc3c2)C(=O)N[C@@H](CC(C)C)C(=O)N[C@@H]2C[C@H]2c2ccccc2)n1  remaining compound (pooled human plasma; 15 min, 37 °C): 89.2%
N#Cc1ccc(Nc2nc(N)cc(Oc3c(F)cc(-c4ccc(C#N)cc4)cc3F)n2)cc1  remaining compound (monkey plasma, diluted in PBS; 1.00 µM, 1.00 h, 37 °C): 85.4%

Repeated from above:
NC(=O)c1ccccc1NC(=O)c1ccc(-c2ccccc2)cc1  remaining compound (human plasma; 2 µM, 60 min, 37 °C): 105%
N#C[C@@]12C[C@@H]1[C@@H](n1cnc3c(N[C@@H](C4CCC4)C4CC4)nc(I)nc31)[C@H](O)[C@@H]2O  remaining compound (plasma stability; human plasma; 120 min): 93.3%
N[C@H]1CC[C@H](N[C@@H]2C[C@H]2c2ccccc2)CC1  remaining compound (aqueous buffer; 4 days, 37 °C): 94%
CC[C@H](C)C(=O)O[C@H]1C[C@@H](C)C=C2C=C[C@H](C)[C@H](CC[C@@H]3C[C@@H](O)CC(=O)O3)[C@H]21  remaining compound (mouse liver microsomes; 15 min): not detected
NCc1cc2c(cc1F)C(=O)N(C1CCC(=O)NC1=O)C2 (stereo not shown)  remaining compound (male Göttingen minipig, whole blood; 3 h): < 1%
